Experimental data of several laboratories.
Lines come from different studies, so protocols differ. Values joined by “and” are separate records of one study, mostly repeats; a detail may differ.
Target: Ephrin type-A receptor 2 (EPHA2, Homo sapiens, UniProt P29317)

`COc1ccc(NC(=O)Nc2ccc3c(c2)C(=O)N(C(C)CO)CC(C)C(CN(C)Cc2ccc4c(c2)OCO4)O3)cc1` (centres unmarked) gave a remaining activity of 90% (kinase activity, KinaseProfiler; 0.03 µM, species human; reference: control).
With `C=CC(=O)N1Cc2nc(-c3cc(-c4cc(Cl)cnc4Cl)c(F)cc3F)n(-c3ccncn3)c2C1` the inhibition was 4.6% (cell-free assay; 1 µM).
For `NC(=O)[C@@H](O)C[C@H]1CCc2sc3ncnc(O[C@H]4CC[C@H](N5CCOCC5)CC4)c3c21`, the inhibition was 15% (enzyme activity, inhibitor; 10 µM).
`COCC12C(=O)NC3C4(C(OC)CC1O)C1CC5(O)C(OC)C(O)C(OC(C)=O)(C1C5OC(=O)c1ccccc1)C3(O)C(OC)C24` (centres unmarked) gave a remaining activity of 116% and 106% (kinase activity, inhibitor, ProQinase kinase profiling; 25 µM; reference: control).
With `C[C@H]1CN(C(=O)c2cn(-c3ccnc(N)n3)c3cc(C#CC4(O)CCCCC4)ccc23)CCN1` the inhibition was 14% (enzyme activity, inhibitor, FRET; 1 µM).
The remaining binding of `CCN1CCN(Cc2ccc(C(=O)Nc3ccc(C)c(NCc4cnc5[nH]ccc5c4OC)c3)cc2C(F)(F)F)CC1` is reported as 2% (binding, competition with immobilised ligand; 1 µM).
`O=C=[N][Ru-4]123([n]4c5ccc(O)cc5c5c6c(c7cc(F)c[n+]1c7c54)C(=O)NC6=O)[S+]1CC[S+]2CC[S+]3CC1` (centres unmarked) gave a remaining activity of 97% (enzyme activity; 100 nM, human enzyme, together with: 10 µM ATP; reference: untreated).
For `CN1CCN(Cc2ccc(NC(=O)c3cccc(C#Cc4cnc(N)c5ncccc45)c3)cc2C(F)(F)F)CC1`, the remaining binding was 3.3% (cell-free assay, competition with immobilised ligand; 0.5 µM).
`C=CC(=O)N1CCCC(n2c(=O)c3ncccc3n(Cc3ccc(Oc4ccccc4)cc3)c2=O)C1` (centres unmarked) has a remaining binding of 100% (cell-free assay, competition with immobilised ligand; 1 µM).
`COc1cc(Nc2nccc(-c3cnn4nc(OC)ccc34)n2)cc(C(F)(F)F)c1` has a remaining binding of 94% (binding, competition with immobilised ligand; 1 µM).
With `c1ccc2c(Nc3cc(C4CCC4)[nH]n3)nc(Nc3ccc4nc[nH]c4c3)nc2c1` the remaining activity was 22% (enzyme activity, inhibitor; 0.25 µM).
`COc1cc(OC)c(F)c(/C=C/c2cnc3ccn(S(=O)(=O)c4cn(CCF)cn4)c3n2)c1F` gave an inhibition of 0% (100 nM).
The remaining binding of `CNS(=O)(=O)Nc1nccc(Cc2c(C)c3ccc(Oc4ncccc4F)cc3oc2=O)c1F` is reported as 78% (cell-free assay, competition with immobilised ligand; 10 µM).
`Cc1cccc(O[C@H]2CCC[C@@H](C(C)CNCc3ccncc3)C2)c1` (relative stereo) gave an inhibition of -1% (cell-free assay; 1 µM).
`Cc1cnc2nc1Nc1cccc(c1)COC/C=C/COCc1cc(ccc1OCCN1CCOCC1)N2` has a remaining binding of 100% (binding; 0.1 µM).
Under “activity vs control”, `CNC(=O)C[C@H](Cc1ccc(C#N)cc1)NC(=O)c1cc(-c2ccc(CN[C@H](C)c3ccc(C)cc3)o2)ccc1Cl` is recorded as 114% (enzyme activity, inhibitor; 1 µM).
`O=C(Cc1ccc(OCc2ccccc2)cc1)NC1(C(=O)O)CCN(C(=O)c2ccc(-c3cccc(Cl)c3)cc2)CC1`: “activity vs control” 106% (enzyme activity, inhibitor; 10 µM).
The remaining activity of `Cc1cccc(-c2ccc3nc(NC(=O)C4CCOCC4)nn3c2)c1` is reported as 93% (enzyme activity, Dundee kinase panel; 10 µM).
`CN1CCN(c2ccc(Nc3ncc(Cl)c(Nc4ccccc4P(C)(C)=O)n3)cc2Br)CC1` gave an inhibition of 0% (enzyme activity, inhibitor; 0.1 µM).
With `C=CC(=O)Nc1cccc(-c2cnc3[nH]cc(C(=O)NC(C)(C)C)c3n2)c1` the inhibition was -3% (enzyme activity, inhibitor; 0.1 µM).
`Cc1ccc(C)c(-c2ccc3nc(NC(=O)C4CCCCC4)nn3c2)c1` has a remaining activity of 84% (enzyme activity, Dundee kinase panel; 10 µM).
`C=CC(=O)N1CCc2ccc(-n3c(=O)ccc4cnc5ccc(-c6cnn(C)c6)cc5c43)cc21` has a remaining binding of 100% (KINOMEscan; 1 µM; reference: DMSO control).
`O=C(Nc1ccc(Oc2ncnc3[nH]cc(-c4ccccc4)c23)c(F)c1)c1c2n(n(-c3cc(F)ccc3F)c1=O)CCCC2` gave an inhibition of 10% (enzyme activity, inhibitor; 0.5 µM).

Some of these lines once more:
`COc1cc(OC)c(F)c(/C=C/c2cnc3ccn(S(=O)(=O)c4cn(CCF)cn4)c3n2)c1F` gave an inhibition of 0% (100 nM).
The remaining binding of `CNS(=O)(=O)Nc1nccc(Cc2c(C)c3ccc(Oc4ncccc4F)cc3oc2=O)c1F` is reported as 78% (cell-free assay, competition with immobilised ligand; 10 µM).
